# Experimental data of several laboratories.
# Parts stem from different laboratories: compare values within a part only.
# Sequence of UniProt P54760 (whole entry, looked up): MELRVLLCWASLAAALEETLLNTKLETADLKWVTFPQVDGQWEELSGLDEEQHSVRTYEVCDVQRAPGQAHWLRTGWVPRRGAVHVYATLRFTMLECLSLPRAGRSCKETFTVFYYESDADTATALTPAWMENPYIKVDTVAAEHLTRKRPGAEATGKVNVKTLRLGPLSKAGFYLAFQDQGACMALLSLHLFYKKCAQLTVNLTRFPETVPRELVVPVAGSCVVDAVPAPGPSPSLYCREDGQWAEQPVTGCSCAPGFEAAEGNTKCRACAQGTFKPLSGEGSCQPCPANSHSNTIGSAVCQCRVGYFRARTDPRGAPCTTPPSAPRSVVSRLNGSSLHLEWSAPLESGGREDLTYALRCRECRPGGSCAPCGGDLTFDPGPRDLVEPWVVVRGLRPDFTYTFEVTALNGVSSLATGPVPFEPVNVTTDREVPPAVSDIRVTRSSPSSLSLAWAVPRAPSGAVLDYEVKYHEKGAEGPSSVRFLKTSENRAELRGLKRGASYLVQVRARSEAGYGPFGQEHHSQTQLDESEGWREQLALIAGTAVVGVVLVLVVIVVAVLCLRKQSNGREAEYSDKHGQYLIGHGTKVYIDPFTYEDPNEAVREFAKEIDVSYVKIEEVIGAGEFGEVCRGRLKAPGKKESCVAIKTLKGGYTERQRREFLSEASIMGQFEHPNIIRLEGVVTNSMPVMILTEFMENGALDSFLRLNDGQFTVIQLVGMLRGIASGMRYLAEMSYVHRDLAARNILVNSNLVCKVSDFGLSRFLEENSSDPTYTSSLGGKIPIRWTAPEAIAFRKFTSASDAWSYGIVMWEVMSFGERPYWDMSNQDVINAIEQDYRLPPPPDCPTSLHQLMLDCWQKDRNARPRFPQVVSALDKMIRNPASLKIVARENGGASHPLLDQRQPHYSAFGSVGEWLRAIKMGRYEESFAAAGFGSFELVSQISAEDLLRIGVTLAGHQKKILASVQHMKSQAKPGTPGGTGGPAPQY
# Sequence of UniProt P37173 (whole entry, looked up): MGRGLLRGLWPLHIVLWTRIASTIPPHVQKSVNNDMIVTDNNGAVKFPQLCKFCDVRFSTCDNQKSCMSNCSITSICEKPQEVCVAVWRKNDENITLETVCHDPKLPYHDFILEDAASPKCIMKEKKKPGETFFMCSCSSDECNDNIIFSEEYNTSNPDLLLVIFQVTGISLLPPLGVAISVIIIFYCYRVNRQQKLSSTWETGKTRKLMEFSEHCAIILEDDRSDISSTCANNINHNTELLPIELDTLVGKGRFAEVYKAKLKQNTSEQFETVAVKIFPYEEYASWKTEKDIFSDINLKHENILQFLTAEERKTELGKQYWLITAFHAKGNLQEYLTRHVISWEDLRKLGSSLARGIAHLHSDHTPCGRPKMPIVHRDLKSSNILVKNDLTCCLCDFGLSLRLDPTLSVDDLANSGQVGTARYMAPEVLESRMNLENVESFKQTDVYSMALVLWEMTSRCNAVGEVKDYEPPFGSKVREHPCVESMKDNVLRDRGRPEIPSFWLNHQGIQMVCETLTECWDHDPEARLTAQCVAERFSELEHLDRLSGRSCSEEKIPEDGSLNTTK
# Sequence of UniProt P29320 (whole entry, looked up): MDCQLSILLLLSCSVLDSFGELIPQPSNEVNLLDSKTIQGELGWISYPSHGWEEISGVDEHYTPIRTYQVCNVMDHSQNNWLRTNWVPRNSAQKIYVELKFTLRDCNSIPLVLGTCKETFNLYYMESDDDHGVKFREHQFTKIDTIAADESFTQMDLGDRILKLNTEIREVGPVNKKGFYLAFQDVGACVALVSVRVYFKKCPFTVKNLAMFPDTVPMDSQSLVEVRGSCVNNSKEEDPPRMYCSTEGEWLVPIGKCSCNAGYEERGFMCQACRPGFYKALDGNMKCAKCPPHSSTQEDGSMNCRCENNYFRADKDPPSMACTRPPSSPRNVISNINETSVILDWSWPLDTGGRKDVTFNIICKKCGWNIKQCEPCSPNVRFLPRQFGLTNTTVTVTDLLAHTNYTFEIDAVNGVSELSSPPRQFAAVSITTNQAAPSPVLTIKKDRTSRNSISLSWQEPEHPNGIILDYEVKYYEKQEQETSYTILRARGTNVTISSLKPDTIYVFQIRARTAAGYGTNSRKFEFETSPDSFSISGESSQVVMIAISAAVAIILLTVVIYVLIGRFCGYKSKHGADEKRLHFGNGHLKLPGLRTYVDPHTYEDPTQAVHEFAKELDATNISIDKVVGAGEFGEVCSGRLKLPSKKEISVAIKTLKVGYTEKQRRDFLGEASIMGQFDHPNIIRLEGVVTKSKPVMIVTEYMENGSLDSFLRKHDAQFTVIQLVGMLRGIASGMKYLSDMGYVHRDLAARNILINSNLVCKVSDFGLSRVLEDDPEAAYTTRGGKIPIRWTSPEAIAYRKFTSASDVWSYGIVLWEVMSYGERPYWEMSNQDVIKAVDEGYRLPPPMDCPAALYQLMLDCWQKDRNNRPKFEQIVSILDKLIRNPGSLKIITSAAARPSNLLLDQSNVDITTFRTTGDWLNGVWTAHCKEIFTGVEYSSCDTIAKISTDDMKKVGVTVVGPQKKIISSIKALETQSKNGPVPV
# Sequence of UniProt P35626 (whole entry, looked up): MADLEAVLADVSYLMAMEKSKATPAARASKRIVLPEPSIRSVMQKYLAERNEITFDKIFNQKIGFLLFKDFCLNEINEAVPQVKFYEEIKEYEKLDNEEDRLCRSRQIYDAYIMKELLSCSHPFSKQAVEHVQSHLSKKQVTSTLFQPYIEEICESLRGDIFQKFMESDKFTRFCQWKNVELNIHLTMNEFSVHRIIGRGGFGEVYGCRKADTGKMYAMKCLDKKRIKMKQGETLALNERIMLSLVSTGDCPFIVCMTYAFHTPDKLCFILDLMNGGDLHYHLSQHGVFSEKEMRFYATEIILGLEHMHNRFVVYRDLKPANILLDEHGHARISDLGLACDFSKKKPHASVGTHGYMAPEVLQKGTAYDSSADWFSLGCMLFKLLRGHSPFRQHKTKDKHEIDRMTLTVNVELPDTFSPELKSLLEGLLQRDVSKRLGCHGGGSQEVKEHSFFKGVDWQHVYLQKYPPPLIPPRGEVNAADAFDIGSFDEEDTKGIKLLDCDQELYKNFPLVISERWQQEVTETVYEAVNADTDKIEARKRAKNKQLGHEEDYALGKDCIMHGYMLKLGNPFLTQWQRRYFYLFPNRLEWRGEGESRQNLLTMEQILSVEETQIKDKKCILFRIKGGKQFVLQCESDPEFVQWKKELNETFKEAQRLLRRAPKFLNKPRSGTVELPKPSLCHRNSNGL
# Sequence of UniProt Q08881 (whole entry, looked up): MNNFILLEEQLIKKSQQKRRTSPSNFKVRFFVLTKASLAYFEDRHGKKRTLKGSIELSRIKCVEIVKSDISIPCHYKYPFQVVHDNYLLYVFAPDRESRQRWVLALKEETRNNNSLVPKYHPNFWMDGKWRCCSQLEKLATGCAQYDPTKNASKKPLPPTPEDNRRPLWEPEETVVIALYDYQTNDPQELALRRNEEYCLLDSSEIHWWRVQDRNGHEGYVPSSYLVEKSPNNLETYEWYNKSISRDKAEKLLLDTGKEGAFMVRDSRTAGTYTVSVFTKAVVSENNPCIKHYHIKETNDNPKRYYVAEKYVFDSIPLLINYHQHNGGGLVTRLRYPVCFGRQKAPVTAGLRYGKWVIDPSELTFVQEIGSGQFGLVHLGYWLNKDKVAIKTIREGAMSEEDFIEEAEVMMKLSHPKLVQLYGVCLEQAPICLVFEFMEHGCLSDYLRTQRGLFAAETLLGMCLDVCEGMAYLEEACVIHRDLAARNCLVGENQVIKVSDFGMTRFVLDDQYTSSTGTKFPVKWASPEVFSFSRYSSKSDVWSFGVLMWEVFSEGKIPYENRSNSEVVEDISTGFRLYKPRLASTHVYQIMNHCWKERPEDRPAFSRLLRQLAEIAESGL

# Series 1 — technique: competition protein-binding microarray; form: double-stranded DNA, one strand shown; sample: in vitro; concentration: 2 µM; added: Pho4 competitor, 0.05 µM; direction: higher = stronger binding; all sequences stand within: … GTCTTGATTCGCTTGACGCTGCTG
# Target: Centromere-binding protein 1, full length, His-tagged (CBF1, Saccharomyces cerevisiae, UniProt P17106, residues 1-351)
# Sequence of UniProt P17106 (whole entry, looked up): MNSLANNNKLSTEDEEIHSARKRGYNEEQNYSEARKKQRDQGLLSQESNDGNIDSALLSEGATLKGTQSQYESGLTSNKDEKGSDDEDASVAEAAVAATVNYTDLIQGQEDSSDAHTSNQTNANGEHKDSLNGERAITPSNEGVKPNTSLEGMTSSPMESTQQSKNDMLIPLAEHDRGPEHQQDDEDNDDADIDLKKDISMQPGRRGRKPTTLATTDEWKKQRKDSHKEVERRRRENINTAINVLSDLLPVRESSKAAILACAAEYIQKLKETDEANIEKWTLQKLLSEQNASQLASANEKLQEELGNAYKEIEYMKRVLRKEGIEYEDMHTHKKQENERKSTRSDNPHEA
# Notes: whole 60-bp probe, lowest competitor level
Strand,fluorescence intensity
AGAAACGGCATCTCTCACCTGATTGTTCTCAAGATT,105 a.u.
CTTCTGTAAATTTGACGCGTGGGTGGACGCGCCCCG,92.3 a.u.
GACCAGCTTGTGAGGCATGTGTCACCCTGGAATTTC,79.8 a.u.
AAAAGAGAAGATACCCACGTGCCGAAAAAATAAAGT,1960 a.u.
TGCGCAACAACTTGGAAAGTGGGTGTATGTCTAGAA,67.4 a.u.
CAACAAATAGTAGCTCGCGTGGCCGAATGGCAACGC,65.4 a.u.
CGGGGTTAAGTTTGGCCCGTGGGTGGCTTGCAGCAG,64.5 a.u.
AGGTCCGCTGGAAAGCACGATCTCCGACGTAGTGGA,58 a.u.

# Series 2 — cell line: mouse MPNST tumor cells; technique: high-content immunofluorescence imaging; measured: nuclear SOX9; concentration: 10 µM; time: 12 h; notes: mean of 2 replicates; relative to: DMSO control; direction: higher = more nuclear SOX9
Structure (SMILES),nuclear SOX9 intensity
CC[C@@H](C)c1ccc(NC(=O)Cn2cnc3c2c(=O)n(C)c(=O)n3C)cc1 (racemic),108 % of DMSO
CS(=O)(=O)Nc1ccc([N+](=O)[O-])cc1Oc1ccccc1,108 % of DMSO
CC1=C(C(=O)O)N2C(=O)[C@@H](NC(=O)[C@H](N)c3ccc(O)cc3)[C@H]2SC1,102 % of DMSO

# Series 3 — mode: antagonist
# Target: Beta-1 adrenergic receptor (ADRB1, Homo sapiens, UniProt P08588)
# Sequence of UniProt P08588 (whole entry, looked up): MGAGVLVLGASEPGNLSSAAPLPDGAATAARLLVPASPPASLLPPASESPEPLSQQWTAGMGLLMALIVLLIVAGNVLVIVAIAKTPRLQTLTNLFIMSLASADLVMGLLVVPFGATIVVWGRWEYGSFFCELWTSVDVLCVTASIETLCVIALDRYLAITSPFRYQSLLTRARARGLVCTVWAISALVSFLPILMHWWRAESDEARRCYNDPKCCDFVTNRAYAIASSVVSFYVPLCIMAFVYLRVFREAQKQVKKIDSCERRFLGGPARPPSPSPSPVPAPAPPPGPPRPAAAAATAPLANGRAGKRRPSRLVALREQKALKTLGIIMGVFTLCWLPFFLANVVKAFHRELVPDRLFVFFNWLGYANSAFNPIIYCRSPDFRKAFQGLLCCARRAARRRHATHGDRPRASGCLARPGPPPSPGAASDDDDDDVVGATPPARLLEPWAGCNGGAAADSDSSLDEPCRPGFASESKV
SMILES,IC50 [µM]
N[S+](=O)([O-])c1ccc(CCNCC2(O)CNCCOC2)cc1 (stereo not shown),≥ 100
N#CC(c1nc2ccccc2s1)c1cnn(-c2ccccc2)c(=O)c1Cl (stereo not shown),≥ 100
CCCC1C=CCN1C(=O)c1cc(-c2ccncc2)nc2ccccc12 (stereo not shown),≥ 100

# Series 4 — effect on: cell-free assay; technique: competition with immobilised ligand; concentration: 1 µM
# SMILES: CS(=O)(=O)NCC[C@H](NC(=O)c1cncc2c1cnn2-c1ccc(F)cc1)c1ccnc(S(C)(=O)=O)c1
target,remaining binding [%]
"MAP/microtubule affinity-regulating kinase 3 (MARK3, Homo sapiens, UniProt P27448)",92
"TGF-beta receptor type-2 (TGFBR2, Homo sapiens, UniProt P37173)",96
"Serine/threonine-protein kinase RIO2 (RIOK2, Homo sapiens, UniProt Q9BVS4)",100
"Interleukin-1 receptor-associated kinase 1 (IRAK1, Homo sapiens, UniProt P51617)",100
"Serine/threonine-protein kinase 25 (STK25, Homo sapiens, UniProt O00506)",78
"Ephrin type-B receptor 4 (EPHB4, Homo sapiens, UniProt P54760)",100
"Serine/threonine-protein kinase 26 (STK26, Homo sapiens, UniProt Q9P289)",98
"G protein-coupled receptor kinase 3 (GRK3, Homo sapiens, UniProt P35626)",100
"Peripheral plasma membrane protein CASK (CASK, Homo sapiens, UniProt O14936)",100
"Serine/threonine-protein kinase D2 (PRKD2, Homo sapiens, UniProt Q9BZL6)",94
"Mitogen-activated protein kinase kinase kinase 2 (MAP3K2, Homo sapiens, UniProt Q9Y2U5)",100
"Phosphatidylinositol 4,5-bisphosphate 3-kinase catalytic subunit gamma isoform (PIK3CG, Homo sapiens, UniProt P48736)",80
"G protein-coupled receptor kinase 4 (GRK4, Homo sapiens, UniProt P32298)",100
"Serine/threonine-protein kinase SIK3 (SIK3, Homo sapiens, UniProt Q9Y2K2)",98
"Phosphatidylinositol 4,5-bisphosphate 3-kinase catalytic subunit alpha isoform (PIK3CA, Homo sapiens, UniProt P42336, C420R)",98
"Tyrosine-protein kinase ITK/TSK (ITK, Homo sapiens, UniProt Q08881)",99
"Ephrin type-A receptor 3 (EPHA3, Homo sapiens, UniProt P29320)",87

# Series 5 — organism: Sarcocystis neurona; effect on: parasite growth; concentration: 10 µM; time: 96 h
Structure (SMILES),inhibition
[H]/N=C(/NC)NCCC[C@H](N)C(=O)O,-14.5%
O=C(O)Cc1ccccc1Nc1c(Cl)cccc1Cl,-5.9%
CC(=O)OCC[N+](C)(C)C,-14.3%

# Series 6 — host: mouse; sample: microsomes or S9; concentration: 2 µM; time: 0.5 h
SMILES,remaining compound [%]
CC(C)Nc1ccnc(N2CCN(Cc3cccs3)C(CCO)C2)n1 (stereo not shown),2.23
CCCC(C(=O)O)c1c(C)ncnc1-c1cc(F)c2c(c1C)CCCO2 (stereo not shown),> 99
COc1ccc(Cn2c(=O)[nH]c(-c3ccc(F)cc3)c(-c3ccc(F)cc3)c2=O)cc1,88.6

# Repeated from above (series 4):
target,remaining binding [%]
"Serine/threonine-protein kinase D2 (PRKD2, Homo sapiens, UniProt Q9BZL6)",94
"Mitogen-activated protein kinase kinase kinase 2 (MAP3K2, Homo sapiens, UniProt Q9Y2U5)",100
